Measured values of several laboratories.
Lines come from different studies, so protocols differ. Values joined by “and” are separate records of one study, mostly repeats; a detail may differ. ± gives the spread as reported.
SLC6A3: Sodium-dependent dopamine transporter (SLC6A3, Homo sapiens, UniProt Q01959)
Sequence of UniProt Q01959 (whole entry, unmodified, looked up): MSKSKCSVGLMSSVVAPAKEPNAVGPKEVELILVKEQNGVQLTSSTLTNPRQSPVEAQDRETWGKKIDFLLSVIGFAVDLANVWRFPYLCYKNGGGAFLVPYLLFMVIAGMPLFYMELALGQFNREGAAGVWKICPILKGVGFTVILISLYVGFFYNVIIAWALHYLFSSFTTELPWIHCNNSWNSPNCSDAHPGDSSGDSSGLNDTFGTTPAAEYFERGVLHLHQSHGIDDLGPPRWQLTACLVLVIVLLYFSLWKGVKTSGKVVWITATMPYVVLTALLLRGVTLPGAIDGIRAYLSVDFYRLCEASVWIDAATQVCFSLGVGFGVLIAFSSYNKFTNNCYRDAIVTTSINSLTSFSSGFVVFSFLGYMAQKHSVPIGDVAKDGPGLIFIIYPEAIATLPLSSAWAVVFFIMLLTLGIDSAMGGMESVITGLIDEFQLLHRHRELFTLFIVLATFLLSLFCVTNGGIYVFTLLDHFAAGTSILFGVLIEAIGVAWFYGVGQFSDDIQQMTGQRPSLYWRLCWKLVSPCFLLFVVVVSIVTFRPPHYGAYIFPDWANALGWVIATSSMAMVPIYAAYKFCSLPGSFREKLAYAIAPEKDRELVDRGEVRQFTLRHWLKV

SMILES | target | test | test system | setting | scale | measurement | value
CCCC(C(=O)c1ccc2c(c1)OCO2)N1CCCC1 (centres unmarked) | SLC6A3 | DAT-mediated current, inhibitor, electrophysiology | human DAT-expressing cells | 100 µM, together with: 30 µM dopamine |  | maximal inhibition rate (kapp max) | 4.5 s⁻¹
O=c1ccc2ccccc2o1 | SLC6A3 | antagonist radioligand binding |  | 10 µM, SafetyScreen44 |  | inhibition | -0.14%
c1ccc2sc(C3(N4CCCCC4)CCCCC3)cc2c1 | SLC6A3 | radioligand binding, antagonist |  | reference compound |  | Hill coefficient | 1.1
c1ccc2cc([C@]34CNC[C@H]3C4)ccc2c1 | Sodium-dependent dopamine transporter (SLC6A3, Homo sapiens, UniProt Q01959, F326A) | inhibitor, [3H]dopamine uptake |  | 100 nM, F326A mutant | relative to: no inhibitor | dopamine uptake | 107% and 66.6% and 102%
c1ccc(C(NCCNC(c2ccccc2)c2ccccc2)c2ccccc2)cc1 | SLC6A3 | binding |  | 10 µM, Eurofins selectivity panel |  | inhibition | 88%
CCC(CNc1nc(-c2cn3ccnc3cc2C)nc2ccccc12)c1ccccc1 (centres unmarked) | SLC6A3 | [3H]WIN35,428 binding | CHO-K1, transfected | 10 µM |  | inhibition | 66.7 ± 8.1%
c1ccc2sc(C3(N4CCCCC4)CCCCC3)cc2c1 | SLC6A3 | binding, antagonist, radioligand binding |  |  |  | Hill coefficient | 1
COC(=O)[C@H]1[C@@H](OC(=O)c2ccccc2)C[C@@H]2CC[C@H]1N2C | SLC6A3 |  | HEK293-hDAT |  |  | Hill coefficient | -1.2 ± 0.1
CCCC(C(=O)c1ccc2c(c1)OCO2)N1CCCC1 (centres unmarked) | SLC6A3 | dopamine-induced inward current, inhibitor, two-electrode voltage clamp | Xenopus oocytes expressing hDAT | 10 µM, holding potential -60 mV, together with: dopamine 5 µM |  | time to steady-state inhibition | 15 s
CN[C@@]1(c2ccccc2Cl)CCCCC1=O | SLC6A3 | radioligand binding, antagonist, radioligand displacement |  | 30 µM |  | inhibition | 13%
CCC[C@H](C(=O)c1ccc(C)cc1)N1CCCC1 | SLC6A3 | DAT-mediated current, inhibitor, electrophysiology | human DAT-expressing cells | 100 µM, together with: 30 µM dopamine |  | maximal inhibition rate (kapp max) | 3.49 s⁻¹
C[C@H]1COCCN1c1nc(NCc2cccnc2C(F)(F)F)c2cccnc2n1 | SLC6A3 | binding |  | CEREP panel |  | IC50 | > 100 µM
COC(=O)C(c1ccccc1)C1CCCCN1 (centres unmarked) | SLC6A3 | transporter current, inhibitor |  | together with: dopamine 30 µM |  | maximal inhibition rate (kapp) | 2.2 s⁻¹
COC(=O)[C@H]1[C@@H](OC(=O)c2ccccc2)C[C@@H]2CC[C@H]1N2C | SLC6A3 | endogenous leak current, inhibitor, two-electrode voltage clamp | Xenopus oocytes expressing hDAT | 0.01 to 30 µM, -60 mV | relative to: dopamine pre-pulse peak current | remaining current | 24.6 ± 0.5%
